Published values of several laboratories.
Every numbered part comes from another study and shows a few of its results, in no order.

Set 1
Target: Interferon regulatory factor 5, full length, phosphomimetic (IRF5, Homo sapiens, UniProt Q13568-2, residues 1-514, S451D/S453D/S456D/S462D)
Method: protein-binding microarray
Form: double-stranded DNA, one strand shown
Matrix: in vitro
Concentration: 940 nM top
Setting: 60-bp whole probe
Added: salmon DNA 0.4 mg/ml
Relative to: random background probes
Direction: higher = stronger binding
All sequences stand within: GCCTAGCAC … GTCTTGATTCGCTTGACGCTGCTG
Oligonucleotide | fitted relative affinity [z-score]
GACGATATCTGTATCGAGACGTGCTAG | 0.607
CTGACTTTGGAGATGACTCAGTGCTAG | -0.437
GGCTCTCAGTGGGCTGCTGGGTGCTAG | 0.766
TTAGGTTTGCTTATCCTTTAGTGCTAG | -0.0976
TCATTTTTTCATATATAACTGTGCTAG | 1.48
TCATCTCTAGAAATTCCCACTGTGCTA | 0.662
TGAGGTTTCGGTATCGGTTAGTGCTAG | 12.8
TTAGGTTTCCGTATCGGTTAGTGCTAG | 4.63
TTAGGTATCCTTCGCCTTTAGTGCTAG | 0.351
CTAGTTTTACTTTCTATGTCGTGCTAG | 2.56
TTAGGACTGGGGTATCCGTTAGTGCTA | -0.13
TCAGATATAGGATAACGAACTGTGCTA | 0.122
TTTTATTTATAAATTATCTTGTGCTAG | 0.366
GACGGTTTCGGTATCGGTACGTGCTAG | 13.8
GTGATTTCAGTTTTCTTTTCGTGCTAG | 1.9
TTCTACTTCTGTTTTTGCTTGTGCTAG | 1.16
TTAGAACTGAGACTAGATTAGTGCTAG | -0.396
CTAATTCTCTTTTCACTTTCGTGCTAG | 2.64
TTAGGACTGGAGTTTCGGTTAGTGCTA | 5.81

Set 2
Target: RNA binding protein fox-1 homolog 2, RRM domain, GST-SBP tag (RBFOX2, Homo sapiens, UniProt O43251-10, residues 100-194)
Method: RNA Bind-n-Seq
Form: RNA
Matrix: in vitro
Concentration: 365 nM
Setting: natural RNA segment, single round, ends assumed
Relative to: no-protein control
Direction: higher = stronger binding
Target sequence (chain): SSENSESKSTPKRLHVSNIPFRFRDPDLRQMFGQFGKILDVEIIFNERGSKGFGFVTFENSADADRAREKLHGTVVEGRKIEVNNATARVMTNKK
Oligonucleotide | RBNS enrichment (R)
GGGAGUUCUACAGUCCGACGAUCUCUGCAGGAGCUGGUGGUGCAAAAAGGCUGGCGUUUGCCAGAGUACAUGGUGACCCAAGAGUCUGGGCCUGCUCACCGCAAAGAGUUCACCAUGACUUGCCGGGUGGAGCUGGAAUUCUCGGGUGCCAA | 0.447
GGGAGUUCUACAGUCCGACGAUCCUGAAAUGCGUGCUCCCACCAAGGCCAGAGACCCACAGCCCCAAGACAAGAAGUGCCCUUAUAAACCCCUGCAGCCCUGCAGCCCUGAAAUAAAUUUUGCAAUUAGUUUCUGGAAUUCUCGGGUGCCAA | 0.585
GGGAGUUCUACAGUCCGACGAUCAAUUAACAAGAAAACAUAUGAACUCGCUUUAUACCUGAAGAGGUCUGUAACCAACCUUUAUCUGGCAUCAUAAUUGCAGCACAAUAAUGAUUUGCAUGAUAUCUUGAAACUGGAAUUCUCGGGUGCCAA | 7.44
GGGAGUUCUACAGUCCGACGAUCCACCUUUCGGCAGAGGAACCCCCACCAGACAUCACCCUUUGCCUUAGCAGGGGUGACUUUGUCUCUCCUGGCUGGGCCAUCCUUCCGCCAAUCUGGCCCUUACACACUCAUGGAAUUCUCGGGUGCCAA | 0.494
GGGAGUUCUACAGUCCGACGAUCUGACUUUUUUUUAAUGAAGGGAAUAAUUGCCAAGUACUUAAAUCUACCUGAGGUACACUUUUAAACCUCAUCUUCUAUUUCUUCCCUCUCUUCUGCAAAUGAACAAAACAUGGAAUUCUCGGGUGCCAA | 0.422
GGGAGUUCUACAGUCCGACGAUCUCAUCCGUUUUUAAUUAUUUUAACUGACCCUUGACAAUCUUGUCAGCAAUAUAGGACUGUUGAACAAUCCCGGUGUGUCAGGACCCCCAAAUGUCACUUCUGCAUAAAGCUGGAAUUCUCGGGUGCCAA | 0.8
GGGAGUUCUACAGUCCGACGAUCACAUGGAUAGUUGUGGCCACCUGCUGACUAUUUGUGGUUUAAAAUAAAAGGUUUACUUGUCUGCAGAUACCUGACUCUUAGUAUCUUUACUGCAUUUUGGGAGUGUUUCAUGGAAUUCUCGGGUGCCAA | 0.892
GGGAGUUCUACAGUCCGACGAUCCUUAAUAGGAUGGUGCCCAUAUAGGUGAGCAUCCCUUUAGAUCAUGGGAACCAGCAGACUGCAUUCCUAAUCUUCAUUAUGCCUGAGACUUGUCUUACAAUGUUACCUUUUGGAAUUCUCGGGUGCCAA | 0.293

Set 3
Target: RING finger protein unkempt homolog, zinc fingers 1-6, GST-SBP tag (UNK, Homo sapiens, UniProt Q9C0B0, residues 30-357)
UniProt Q9C0B0, sequence (30-357, looked up): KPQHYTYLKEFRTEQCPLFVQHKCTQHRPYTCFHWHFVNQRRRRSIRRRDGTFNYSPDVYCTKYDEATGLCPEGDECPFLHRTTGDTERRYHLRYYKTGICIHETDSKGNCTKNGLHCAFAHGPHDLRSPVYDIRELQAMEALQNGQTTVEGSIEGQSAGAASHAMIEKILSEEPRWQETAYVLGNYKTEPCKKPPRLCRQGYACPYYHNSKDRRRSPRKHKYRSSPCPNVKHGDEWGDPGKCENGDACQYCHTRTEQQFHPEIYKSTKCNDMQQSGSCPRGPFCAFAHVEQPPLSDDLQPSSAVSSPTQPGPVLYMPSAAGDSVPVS
Method: RNA Bind-n-Seq
Form: RNA
Matrix: in vitro
Concentration: not given
Setting: RNA with constant flanks, human-mouse chimeric sites, ends assumed
Relative to: input RNA pool
Direction: higher = stronger binding
Oligonucleotide | bound/input enrichment
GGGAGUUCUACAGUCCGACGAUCAACGUGGAGUUGAGUUCCUUGGCCCGGCUUCCCAGCUUGAAUAAACUCCGGAAGUUGGAACUUAGUGAUAAUAUAAUUUCUGGAGGCUUGGAAGUCCUGGCAGAGAAAUGUCCAAAUCUUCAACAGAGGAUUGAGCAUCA | 5.64 ratio
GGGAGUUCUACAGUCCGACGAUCAGAUUCCCCCUCCUGAGGCCUUCUCCAAAGUUGGAGUCUCUUACAGAUGCCUCAUCCCCUGUUAGCGUUUUAGUUUGGACCACCCAGCCUUGGACAAUUCCCGCCAACCAGGCAAUUUGCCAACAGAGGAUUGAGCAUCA | 1.98 ratio
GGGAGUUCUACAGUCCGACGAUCCCAAGUGAUUCAUCCCAAGGACAGGCCACCCCAUUUGAUGCCUGGACUGAUGACAGUAUGGAAGGGCCUAGUCAAAAUGUUGAAGCUGAGUCAAUUCAAGAUAAUGCGAGUAUGGAAGAGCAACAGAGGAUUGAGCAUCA | 0.337 ratio
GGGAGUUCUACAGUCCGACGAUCCCCUCCCCGGGCCACCCACCCCUCCCGGCUCCCCGCCGAGAUCCAGGUUUCUUCUUAUUUCAUAGCAAAUAAGAAAAAUGUUCUACGCACAUUUUGUUCUCAGUAAAAGAGGGCCUCUGGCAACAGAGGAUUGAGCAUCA | 0.68 ratio
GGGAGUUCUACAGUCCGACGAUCUGUGCAUUAUGAUGCUUAGAUGGUUUUUGCAAAAGCAGAAAUCGCUGCAAGGUAAUCACAAUAGAUAAAAGUGGUAUUUUAAACCUUUGAAAUAAAUGGAUGUAACUGUACCUUGGUACACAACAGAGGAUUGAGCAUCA | 0.66 ratio
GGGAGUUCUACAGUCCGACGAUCGGCUGCUACUAUUCUCCCUGGAGUGGCUGGAGUUCCCGCCGGAGCGCGGCCAGACUAAUUUUAGAAAAUGCCAAGUAGGAAGUUUGUUGAGGGUGAAGUGGUCAGAGGUCGAUGGCCUGGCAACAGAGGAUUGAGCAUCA | 5.92 ratio
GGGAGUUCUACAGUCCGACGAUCGAAAGAGAACUAAAGCAACUAAUAGAGAAGAGGAUUGGCAAAGAGAAAUUUCAUAGAAAACUAGGAUUUAUUAGCAAACAUGAGUUAUAUUCCAGAGCGUCUCAGAAACCCCAGCCAAACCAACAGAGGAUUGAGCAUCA | 12.4 ratio
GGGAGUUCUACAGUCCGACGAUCUUCAAAGAAAAGGGCAGUUCAUAAAUAUCAUAAGUAACUCUGGGGGAGGGAAAUUCUGUUCUUUUGUUUAAUUUUCCCCCAAAUGAAACCAACAUGCGUGUUGAAGAACUGAGAAAAAAUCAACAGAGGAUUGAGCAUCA | 0.275 ratio

Set 4
Target: Ras GTPase-activating protein-binding protein 1, full length (G3BP1, Homo sapiens, UniProt Q13283)
UniProt Q13283, sequence (whole entry, looked up): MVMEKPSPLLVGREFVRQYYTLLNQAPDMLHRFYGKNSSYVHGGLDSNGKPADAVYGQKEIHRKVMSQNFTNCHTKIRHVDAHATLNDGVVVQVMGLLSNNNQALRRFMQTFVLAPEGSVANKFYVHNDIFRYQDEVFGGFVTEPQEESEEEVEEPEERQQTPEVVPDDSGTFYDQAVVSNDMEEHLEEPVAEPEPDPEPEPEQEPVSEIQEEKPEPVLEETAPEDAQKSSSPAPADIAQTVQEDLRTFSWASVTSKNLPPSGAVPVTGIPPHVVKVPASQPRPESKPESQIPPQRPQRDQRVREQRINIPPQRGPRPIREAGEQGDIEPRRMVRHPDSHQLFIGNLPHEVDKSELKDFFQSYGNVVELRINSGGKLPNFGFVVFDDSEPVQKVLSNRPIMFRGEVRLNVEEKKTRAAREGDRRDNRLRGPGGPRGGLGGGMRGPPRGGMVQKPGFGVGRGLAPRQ
Method: RNA Bind-n-Seq
Form: RNA
Matrix: in vitro
Concentration: 200 nM
Setting: whole 134-nt RNA, ends assumed
Added: 150 mM KCl
Relative to: input library
Direction: higher = stronger binding
Oligonucleotide | log2 enrichment
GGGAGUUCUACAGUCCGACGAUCACCAUGCAGGUGGGCAUCUUUGGGAAGUGGGGCAAGGAGGGGAUAGGGAGGGGGGUAACACUUUGGGAACAGGUGGUCCCAGGUCGUUUCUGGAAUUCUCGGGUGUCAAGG | 1
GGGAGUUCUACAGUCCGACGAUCCUCAAGUCCUGUGCUACACAUCGUAUGUACCGAAUCGGUGGUGGUUUUUUUGGAAAGUAUUAUGUUACGCCGUUCGGAUCUGCACUUCCAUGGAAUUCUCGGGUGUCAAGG | -0.352
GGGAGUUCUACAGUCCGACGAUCGUCCUGUGCUACACAUCGUAUGUACCGAAUCGGGAAAAAAAGGGAAAAAAAGGGAGGGAAAGUAUUAUGUUACGCCGUUCGGAUCUGCACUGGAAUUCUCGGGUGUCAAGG | 0.0478
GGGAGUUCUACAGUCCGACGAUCUCCUCAAGUCCUGUGCUACACAUCGUAUGUACCGAAUCGGUGGUUUGGUGGAAAGUAUUAUGUUACGCCGUUCGGAUCUGCACUUCCAGCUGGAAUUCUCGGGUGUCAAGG | -0.589
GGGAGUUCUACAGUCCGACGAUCCACAGACAACACGCACCCACACAGACACAGAGGGAAGGGGUUGGGAUGGGGACAGGGGGCACAGCAGGGCGGGGUAGGACCCCAGCCCCUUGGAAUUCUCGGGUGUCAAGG | 1.61
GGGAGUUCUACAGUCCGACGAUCCUCAAGUCCUGUGCUACACAUCGUAUGUACCGAAUCGGGGAAGGAAGGGGAAGGAAAGUAUUAUGUUACGCCGUUCGGAUCUGCACUUCCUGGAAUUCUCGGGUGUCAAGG | -0.0855
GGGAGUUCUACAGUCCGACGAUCACCAUGCAGGUGGGCAUCUUUGGGAAGUGGGGCAAGGGGGGGAUAGGGAGGGGGGUAACGCUUUGGGAACAGGUGGUCCCAGGUCGUUUCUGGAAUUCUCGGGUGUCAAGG | 0.766
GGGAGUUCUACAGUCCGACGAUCCCUGUGCUACACAUCGUAUGUACCGAAUCGGGAAAAAAGGGGAAAAAAGGGAAAAAAGGGAAAGUAUUAUGUUACGCCGUUCGGAUCUGCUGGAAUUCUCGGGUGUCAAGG | -0.643
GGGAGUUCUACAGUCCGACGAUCUCAAGUCCUGUGCUACACAUCGUAUGUACCGAAUCGGUUUGGUUUUUGGAAAGGAAAGUAUUAUGUUACGCCGUUCGGAUCUGCACUUCCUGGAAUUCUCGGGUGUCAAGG | -0.819
